{"data": "Measured values from different studies", "B1": "enzyme T113A (Streptomyces parvus, UniProt A0A7K3RVR3); chain MYVPEQYRPRDASWTLELIRSNPLALLVTNGPQHPWATHVPVLFAEEPDGPEGPDGLDATGDDLVGRRLLGHLNLMNPHWEALAGAGHALLVFQGPGSYVSPTVYETAPAAPAWDFTSVHVHGALRLIDDPDDLRKIVQATVRAYEREVGTDWDMSESLEYFERLLPGVRGFEIKIESVDSMFKLSQEQLPETVTKVIDSFRRSDGGRRQELATMIERAASD", "B2": "enzyme N77A (Streptomyces parvus, UniProt A0A7K3RVR3); chain MYVPEQYRPRDASWTLELIRSNPLALLVTNGPQHPWATHVPVLFAEEPDGPEGPDGLDATGDDLVGRRLLGHLNLMAPHWEALAGAGHALLVFQGPGSYVSPTVYETAPAAPTWDFTSVHVHGALRLIDDPDDLRKIVQATVRAYEREVGTDWDMSESLEYFERLLPGVRGFEIKIESVDSMFKLSQEQLPETVTKVIDSFRRSDGGRRQELATMIERAASD", "note": "Lines come from different studies, so protocols differ. ± gives the spread as reported.", "sequence of UniProt P42336 (whole entry, unmodified, looked up)": "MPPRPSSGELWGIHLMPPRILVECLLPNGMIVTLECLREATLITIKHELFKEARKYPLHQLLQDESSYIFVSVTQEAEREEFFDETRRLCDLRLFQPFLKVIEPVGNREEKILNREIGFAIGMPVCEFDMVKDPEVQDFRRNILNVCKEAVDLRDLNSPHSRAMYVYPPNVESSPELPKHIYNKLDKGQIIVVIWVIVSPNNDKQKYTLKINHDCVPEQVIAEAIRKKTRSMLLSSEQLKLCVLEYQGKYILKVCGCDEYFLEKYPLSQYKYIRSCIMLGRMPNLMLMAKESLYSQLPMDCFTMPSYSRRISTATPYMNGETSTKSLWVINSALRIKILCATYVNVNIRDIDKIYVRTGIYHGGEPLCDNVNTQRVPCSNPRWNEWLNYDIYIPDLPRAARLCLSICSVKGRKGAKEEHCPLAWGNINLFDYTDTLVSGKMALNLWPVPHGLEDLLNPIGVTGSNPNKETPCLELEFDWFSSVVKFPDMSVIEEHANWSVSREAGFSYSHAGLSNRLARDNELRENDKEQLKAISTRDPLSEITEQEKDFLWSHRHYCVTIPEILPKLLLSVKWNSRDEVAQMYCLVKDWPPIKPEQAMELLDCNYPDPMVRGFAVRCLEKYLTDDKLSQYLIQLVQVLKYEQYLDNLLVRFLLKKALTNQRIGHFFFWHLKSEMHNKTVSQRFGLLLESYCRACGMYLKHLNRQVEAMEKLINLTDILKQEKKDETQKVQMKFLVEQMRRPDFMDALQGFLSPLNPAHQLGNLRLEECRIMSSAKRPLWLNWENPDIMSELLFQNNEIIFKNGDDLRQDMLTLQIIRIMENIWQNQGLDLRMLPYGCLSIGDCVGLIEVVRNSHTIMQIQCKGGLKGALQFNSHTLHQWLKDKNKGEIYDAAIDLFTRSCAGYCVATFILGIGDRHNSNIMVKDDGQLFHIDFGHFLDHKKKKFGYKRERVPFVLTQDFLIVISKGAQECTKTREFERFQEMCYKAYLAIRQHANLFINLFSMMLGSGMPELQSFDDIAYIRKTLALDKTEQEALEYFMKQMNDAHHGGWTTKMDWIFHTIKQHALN"}
{"Molecule": "C[C@@H](O)[C@@H]1NC(=O)[C@@H](NC(=O)CCOCCOCCOCCOCCNC(=O)c2ccc(NN)nc2)CSSC[C@@H](C(=O)O)NC(=O)[C@H](Cc2c[nH]cn2)NC(=O)[C@H](CO)NC(=O)[C@H](Cc2ccccc2)NC(=O)[C@@H]2CCCN2C(=O)[C@H](CO)NC(=O)[C@@H]2CCCN2C1=O [technetium-99m labelled]", "test system": "mouse HCT-116 xenograft, large intestine", "conditions": "intravenous, 37 MBq, postmortem after imaging", "measurement": "tissue uptake", "result": "1.74 ± 0.74 %ID/g"}
{"Molecule": "O=C(O)CC[C@H](NC(=O)N[C@@H](CCCCNC(=O)[C@H](Cc1ccc2ccccc2c1)NC(=O)[C@H]1CC[C@H](CNC(=O)CNC(=O)CNC(=O)CNC(=O)CN2CCN(CC(=O)O)CCN(C(CCC(=O)NCCC[P+](c3ccccc3)(c3ccccc3)c3ccccc3)C(=O)O)CCN(CC(=O)O)CC2)CC1)C(=O)O)C(=O)O (stereo partly drawn) [terbium-161 labelled]", "conditions": "pH 7.4", "measurement": "logD", "result": "-2.75 ± 0.09"}
{"Molecule": "CN[C@H](CC(C)C)C(=O)N[C@H]1C(=O)N[C@@H](CC(N)=O)C(=O)N[C@H]2C(=O)N[C@H]3C(=O)N[C@H](C(=O)N[C@H](C(=O)O)c4cc(O)cc(O)c4-c4cc3ccc4O)[C@H](O)c3ccc(c(Cl)c3)Oc3cc2cc(c3O[C@@H]2O[C@H](CO)[C@@H](O)[C@H](O)[C@H]2O[C@H]2C[C@](C)(NCc3ccc(OCc4cn(CC(=O)N[C@H](C(=O)N[C@@H](CCN)C(=O)N[C@H]5CCNC(=O)[C@H]([C@@H](C)O)NC(=O)[C@H](CCN)NC(=O)[C@H](CCN)NC(=O)[C@H](CC(C)C)NC(=O)[C@@H](CC(C)C)NC(=O)[C@H](CCN)NC5=O)[C@@H](C)O)nn4)c(OC)c3)[C@H](O)[C@H](C)O2)Oc2ccc(cc2Cl)[C@H]1O", "tested on": "sheep erythrocytes", "conditions": "512 µg/mL, 37 °C", "scale": "baseline: Triton X-100", "measurement": "hemolysis", "result": "< 5%"}
{"Molecule": "CC[C@H](C)[C@H](NC(=O)[C@H](CO)NC(=O)[C@H](Cc1ccc(O)cc1)NC(=O)[C@H](Cc1ccc(O)cc1)NC(=O)[C@H](CC(N)=O)NC(=O)CNC(=O)[C@H](CO)NC(=O)[C@H](Cc1ccc(O)cc1)NC(=O)[C@H](CO)NC(=O)[C@H](CO)NC(=O)[C@H](CC(N)=O)NC(=O)COCCOCCNC(=O)CN1CCN(CC(=O)O)CCN(CC(=O)O)CCN(CC(=O)O)CC1)C(=O)N[C@@H](CC(C)C)C(N)=O [copper-64 labelled]", "assay": "dynamic PET", "test system": "mouse, tamoxifen-induced PDAC, tumor", "conditions": "intravenous, 0.1 µg/mouse, 6.5 min", "measurement": "tumour uptake", "result": "12.3 %ID/mL"}
{"Molecule": "N=C(N)NCCC[C@@H]1NC(=O)[C@H](CCCCNC(=O)CCC(NC(=S)Nc2ccc(CC3CN(CC(=O)O)CCN(CC(=O)O)CCN(CC(=O)O)CCN3CC(=O)O)cc2)C(=O)NCCCC[C@@H]2NC(=O)[C@@H](Cc3ccc(O)cc3)NC(=O)[C@H](CC(=O)O)NC(=O)CNC(=O)[C@H](CCCNC(=N)N)NC2=O)NC(=O)[C@@H](Cc2ccc(O)cc2)NC(=O)[C@H](CC(=O)O)NC(=O)CNC1=O (stereo partly drawn) [scandium-44 labelled]", "assay": "PET imaging ROI", "test system": "female athymic nude mice, U-87 MG xenograft, muscle", "conditions": "intravenous, 4 h", "measurement": "tissue uptake", "result": "0.31 ± 0.15 %ID/g"}
{"Molecule": "B1 (enzyme T113A)", "tested on": "N[C@@H](CCCNO)C(=O)O", "assay": "steady-state kinetics", "conditions": "pH 8, 25 °C, together with: heme", "measurement": "Km", "result": "1710 µM"}
{"Molecule": "O=C1NC2(CC2)COc2ncc(F)cc2[C@H]2COCCN2c2ccn3ncc1c3n2", "test system": "Sprague-Dawley rat, male, serum", "conditions": "oral, 5 mg/kg/day, end of treatment, 4-week subacute toxicity", "measurement": "serum hepatic lipase activity", "result": "3.3 ± 1.2 U/L"}
{"Molecule": "enzyme (Oryza sativa, UniProt A0A7G1K8F5)", "tested on": "CS(=O)(=O)c1ccc(C(=O)C2C(=O)CCCC2=O)c([N+](=O)[O-])c1", "assay": "steady-state kinetics", "conditions": "pH 7.4, 30 °C", "measurement": "Km", "result": "14.8 µM"}
{"Molecule": "COc1ccccc1-c1n[nH]c2nc(NC3CCN(C(=O)Cc4ccc(F)cc4F)CC3)ncc12", "assay": "bead binding, competition bead pull-down, measured: LINJ.35.1240", "test system": "Leishmania donovani axenic amastigote extract", "conditions": "10 µM", "scale": "baseline: vehicle", "measurement": "relative abundance", "result": 1.02}
{"Molecule": "CC(C)(C)C(=O)OCOP(=O)(OCOC(=O)C(C)(C)C)C1CCCN(O)C1=O (stereo not drawn)", "tested on": "UO-31", "measurement": "TGI", "result": "6.41 µM"}
{"Molecule": "CC(C)C[C@@H]1NC(=O)[C@H](CC(=O)O)NC(=O)CNC(=O)[C@H](CCCNC(=N)N)NC(=O)[C@H](Cc2ccccc2)NC(=O)[C@H](CCCCNC(=O)CCc2cn(CCCNC(=O)CN3CCN(CC(=O)O)CCN(CC(=O)O)CCN(CC(=O)O)CC3)nn2)N(C)C(=O)[C@H]2CCCN2C(=O)[C@H](Cc2ccccc2)NC(=O)[C@H](C)NC1=O", "test system": "female CB17 SCID mice, tumour and pancreas", "conditions": "intravenous, dose not given, 90 min, 177Lu-labelled", "scale": "baseline: tumour over pancreas", "measurement": "tissue-to-tissue ratio", "result": "8.1 ± 4.1"}
{"Molecule": "CS(C)(=O)=Nc1ccc(-c2ccc(-c3nc4cc(O[C@@H]5CO[C@H]6[C@@H]5OC[C@H]6O)[nH]c4cc3F)cc2)cc1", "tested on": "Phosphatidylinositol 4,5-bisphosphate 3-kinase catalytic subunit alpha isoform, with p85 alpha (PIK3CA, Homo sapiens, UniProt P42336, E545K)", "assay": "kinase activity", "conditions": "10 µM", "measurement": "inhibition", "result": "-2%"}
{"Molecule": "COc1ccccc1-c1n[nH]c2nc(N[C@H]3CC[C@H](NS(=O)(=O)CC(C)C)CC3)ncc12", "assay": "bead binding, competition bead pull-down, measured: LINJ.26.0590", "test system": "Leishmania donovani extract", "conditions": "10 µM", "scale": "baseline: vehicle", "measurement": "relative abundance", "result": 0.5}
{"Molecule": "CC(C)C[C@@H]1NC(=O)[C@H](CC(=O)O)NC(=O)CNC(=O)[C@H](CCCNC(=N)N)NC(=O)[C@H](Cc2ccccc2)NC(=O)[C@H](CCCCNC(=O)CCc2cn(CCCNC(=O)CCC(C(=O)O)N3CCN(CC(=O)O)CCN(CC(=O)O)CCN(CC(=O)O)CC3)nn2)N(C)C(=O)[C@H]2CCCN2C(=O)[C@H](Cc2ccccc2)NC(=O)[C@H](C)NC1=O (stereo partly drawn)", "test system": "female CB17 SCID mice, tumour and kidneys", "conditions": "intravenous, dose not given, 90 min, 177Lu-labelled", "scale": "baseline: tumour over kidneys", "measurement": "tissue-to-tissue ratio", "result": 0.2}
{"Molecule": "B2 (enzyme N77A)", "tested on": "N[C@@H](CCCNO)C(=O)O", "assay": "steady-state kinetics", "conditions": "pH 8, 25 °C, together with: heme", "measurement": "Km", "result": "950 µM"}
{"note": "A few entries again:"}
{"Molecule": "CS(C)(=O)=Nc1ccc(-c2ccc(-c3nc4cc(O[C@@H]5CO[C@H]6[C@@H]5OC[C@H]6O)[nH]c4cc3F)cc2)cc1", "tested on": "Phosphatidylinositol 4,5-bisphosphate 3-kinase catalytic subunit alpha isoform, with p85 alpha (PIK3CA, Homo sapiens, UniProt P42336, E545K)", "assay": "kinase activity", "conditions": "10 µM", "measurement": "inhibition", "result": "-2%"}
{"Molecule": "COc1ccccc1-c1n[nH]c2nc(N[C@H]3CC[C@H](NS(=O)(=O)CC(C)C)CC3)ncc12", "assay": "bead binding, competition bead pull-down, measured: LINJ.26.0590", "test system": "Leishmania donovani extract", "conditions": "10 µM", "scale": "baseline: vehicle", "measurement": "relative abundance", "result": 0.5}
